Assay results of several laboratories.
Every numbered part comes from another study and shows a few of its results, in no order. Changes are numbered by the printed parent chain.

Series 1
Target: RNA binding protein fox-1 homolog 2, RRM domain, GST-SBP tag (RBFOX2, Homo sapiens, UniProt O43251-10, residues 100-194)
Method: RNA Bind-n-Seq
Form: RNA
Matrix: in vitro
Tested at: 365 nM
Notes: natural RNA segment, single round, ends assumed
Reference: no-protein control
Reading: higher = stronger binding
Quantity: RBNS enrichment (R)
All sequences stand within: GGGAGUUCUACAGUCCGACGAUC … UGGAAUUCUCGGGUGCCAA
Construct (chain): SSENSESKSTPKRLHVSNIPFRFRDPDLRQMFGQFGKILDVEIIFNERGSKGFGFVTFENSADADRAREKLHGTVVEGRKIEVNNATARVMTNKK
UACUCUGUUUUAACAUAUUCCUGGUGGACUAUAUCAACCUUUUGUGCCCUGAAAACUUGAAGGUUAACCCAAACUGUCAAGAUUUAGGAUAGUCAAGAAAAGGUUUAACU: 0.303
AAGGCCUGAUAGAAGGGUCAGGGCAGGCCAGGGGGGUGGGGGGCCGCCCUCAUCAGGCAGCCCCCAGCCCCCUGAGGCCCUGUCCAUCUUCUCCCCACCACCGCCCCGGU: 0.182
CUUCACCCUCUGUGUCCAGAGGCCCAGCAUCUGUCACACAUCAAGGGGGCGUUUAUUCAGUCUUAGAGCCACUCGGAAUGGCUGGCCACAGUCUGAGCUGACUCCCUUCA: 0.313
AUGGCUCUUGGCAGUUUAAAUUUAGUAAUUUUAAUUUAGUGAACAGAAUUGAGAAGAACGUGCCAAAUGAGAAUCAAUUAGGUGGAUUUUUGGCUGUCAUUUCAAAAGUG: 0.432
GUGACUGGUGACUCUCAGGCAGGCAUGACAAAUUGCUGGCCUCCAUUCUUGGCCUUCCUAAUCACUCCCCACUCCUCUAGUCACAGUGUGGCUGAGGACUCAAGGCUGUG: 0.278
CAUGAUUCCUUGUAUUGCAUUUCUUUGCACAUAUUAUGGGCUUGUGACCCUAAACUUGCAGGCAAGAUUAGCUGCUUUAGUAAGUAGUAUUUUGUGGUCUUUUUUUUGUU: 0.745
GUUUGCCUGUCCCCGGAGGCUGGAAGUAGAAGCCAGGCUACAUCUAAGUUGCCCUGACUGGCCUUCAGCUGGCCUUACCCACUUCUUCAGUUACCCUGAACAUGGGGAGU: 0.216
GAUGAGGAUAUCCAAGGAACCCAAAACCUGCUAACAUCGGUUGAAUCUGAAACGGCAGCUUCUGAGGAAACCCUGACCAACGCCUCCCAGCGCAUCAGCAAGCUUGAGAG: 0.806

Series 2
Target: Interferon regulatory factor 3, full length, phosphomimetic (IRF3, Homo sapiens, UniProt Q14653, residues 1-427, S386D/S396D/S398D/S402D/T404D/S405D)
Method: protein-binding microarray
Form: double-stranded DNA, one strand shown
Matrix: in vitro
Tested at: 2540 nM top
Notes: 60-bp whole probe
Added: salmon DNA 0.4 mg/ml
Reference: random background probes
Reading: higher = stronger binding
Quantity: fitted relative affinity
All sequences stand within: GCCTAGCAC … GTCTTGATTCGCTTGACGCTGCTG
Target sequence (chain): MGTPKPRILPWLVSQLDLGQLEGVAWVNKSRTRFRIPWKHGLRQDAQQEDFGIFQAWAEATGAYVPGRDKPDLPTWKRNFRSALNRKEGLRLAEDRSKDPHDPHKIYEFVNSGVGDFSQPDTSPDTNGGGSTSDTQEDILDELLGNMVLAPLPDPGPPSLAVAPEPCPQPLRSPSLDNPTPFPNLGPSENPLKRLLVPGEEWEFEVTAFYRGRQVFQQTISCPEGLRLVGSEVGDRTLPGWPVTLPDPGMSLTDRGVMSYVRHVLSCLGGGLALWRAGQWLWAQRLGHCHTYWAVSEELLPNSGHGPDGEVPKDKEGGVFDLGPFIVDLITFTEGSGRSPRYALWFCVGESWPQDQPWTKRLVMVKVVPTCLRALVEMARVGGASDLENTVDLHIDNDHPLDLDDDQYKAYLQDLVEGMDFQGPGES
GCCGGACTGCTTCTCCTGACGTGCTAG: 0.072 z-score
GACGCACTGCTTATCCTGACGTGCTAG: -0.221 z-score
GACGATATCAGACTGAAGACGTGCTAG: 0.384 z-score
GTAGGTCTCCTTATCCTTTAGTGCTAG: 3.09 z-score
TCAATTGTGGATCTTGCACTGTGCTAG: -0.011 z-score
TTAGGGATCGGGTATCGGTTAGTGCTA: 0.777 z-score
GACGGAATGGGGTATCGGGACGTGCTA: -0.16 z-score
GACAGTTCCCTTTTCCTGACGTGCTAG: 5.85 z-score
GACGGTTCCGGTTTCGGGATGTGCTAG: 6.05 z-score
TCAGATTTACAAACTGTGACTGTGCTA: 0.467 z-score
TTAGGACTGGACACTCGGTTAGTGCTA: -0.825 z-score
TCATATGCCGACTTTGGAACTGTGCTA: 0.331 z-score
TTAGATTCCTGTTTCGATTAGTGCTAG: 4.12 z-score
TCATTTTTCTAATTTACACTGTGCTAG: 2.2 z-score
TCATTACTTTCTATCTCACTGTGCTAG: 3.13 z-score
GACGAACTGGGGACTGGATACGTGCTA: -0.458 z-score
CATCTCGGGCCGCCGGGCCGGTGCTAG: 2.25 z-score
GAGGGTTTCCTACTGCTGACGTGCTAG: 3.27 z-score
TTTCATTTTTTTTCATCATTGTGCTAG: 4.48 z-score

Series 3
Target: Fragile X messenger ribonucleoprotein 1, C-terminal low-complexity region (Fmr1, Mus musculus, UniProt P35922)
Method: RNA Bind-n-Seq
Form: RNA
Matrix: in vitro
Tested at: 200 nM
Notes: whole 134-nt RNA, ends assumed
Added: 150 mM LiCl
Reference: input library
Reading: higher = stronger binding
Quantity: log2 enrichment
Library: 7-deaza-guanosine replaces G
All sequences stand within: GGGAGUUCUACAGUCCGACGAUC … UGGAAUUCUCGGGUGUCAAGG
UGGCCCUGGUGGCAUGCCGGGAGGAAGAGGUGGCCUCAUGGAUCGUGGUGGUCCCGGUGGAAUGUUCAGAGGUGGCCGUGGUGGAGACAG: -0.286
CAAGUCCUGUGCUACACAUCGUAUGUACCGAAUCGGGAGGGUGGGAAAAAAAGGGAAAGUAUUAUGUUACGCCGUUCGGAUCUGCACUUC: -0.215
CUCAAGUCCUGUGCUACACAUCGUAUGUACCGAAUCGGGUUGGUUGGGUUGGGAAAGUAUUAUGUUACGCCGUUCGGAUCUGCACUUCCA: -0.414
UGGCCCUGGUGGCAUACGGGGAGGAAGAGGUGGCCUCAUGGAUCGUGGUGGUCCCGGUGGAAUGUUCAGAGGUGGCCGUGGUGGAGACAG: 0.0652
AAGUCCUGUGCUACACAUCGUAUGUACCGAAUCGGGUUUUGGGGUUUUGGGUUUUGGAAAGUAUUAUGUUACGCCGUUCGGAUCUGCACU: -0.968
UCCUCAAGUCCUGUGCUACACAUCGUAUGUACCGAAUCGGAGGAGGAAAGGAAAGUAUUAUGUUACGCCGUUCGGAUCUGCACUUCCAGC: -2.17
UGGGAGGUGGAUUUUGUUUAUUUUUUUAGCUCAUUUCCAGGGGUGGGAAUUUUUUUUUAAUGUGUGUCAUGAAUAAAGUUGUUUUUGAAA: -0.295
ACCAUGAAAGUGGGCAUCUUUGGGAAGUGGGGCAAGGGGGGGAUAGGGAGGGGGGUAACACUUUGGGAACAGGUGGUCCCAGGUCGUUUC: 1.48

Series 4
Target: CCND1, cyclin fold, Cln2 fusion (human)
Method: yeast growth competition, sequencing
Matrix: yeast
Notes: weak parent motif
Reference: not given
Reading: higher = stronger binding
Quantity: normalised enrichment score
Parent: MICAL3 docking peptide (human); LQLRRQLSFSEDS; partner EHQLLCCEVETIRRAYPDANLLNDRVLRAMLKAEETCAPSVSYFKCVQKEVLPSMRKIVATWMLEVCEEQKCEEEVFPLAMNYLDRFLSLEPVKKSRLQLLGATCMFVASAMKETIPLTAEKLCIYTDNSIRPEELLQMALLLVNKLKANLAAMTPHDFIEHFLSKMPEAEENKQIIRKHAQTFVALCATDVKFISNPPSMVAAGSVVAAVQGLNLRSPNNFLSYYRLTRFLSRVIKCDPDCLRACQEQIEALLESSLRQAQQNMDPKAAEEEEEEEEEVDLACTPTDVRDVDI
Q6S: 0.706
F9G: -0.109
S10Y: 0.102
R5H: -0.301
Q2H: 0.471
L3V: 1.53
R5I: 0.0584
E11I: -0.354
Q2T: 0.479
Q6E: 0.462
R5T: -0.117
D12Q: 0.314
D12I: 1.03
R4P: 0.422
F9P: 0.189
L3T: 1.57
R4I: 0.439
S8H: 0.264
L7F: -0.179
Q6W: 0.24
R5Q: 0.000357
F9N: -0.135
L7H: 0.124
D12G: 0.208
R4E: -0.429

Repeated from above (series 4):
Q2H: 0.471
L3V: 1.53
R5I: 0.0584
E11I: -0.354
Q2T: 0.479
